Published values collected from several papers.
Every numbered part comes from another study and shows a few of its results, in no order. Changes are numbered by the printed parent chain.

Series 1
Target: Ras GTPase-activating protein-binding protein 1, RRM domain (G3BP1, Homo sapiens, UniProt Q13283)
UniProt Q13283, sequence (whole entry, looked up): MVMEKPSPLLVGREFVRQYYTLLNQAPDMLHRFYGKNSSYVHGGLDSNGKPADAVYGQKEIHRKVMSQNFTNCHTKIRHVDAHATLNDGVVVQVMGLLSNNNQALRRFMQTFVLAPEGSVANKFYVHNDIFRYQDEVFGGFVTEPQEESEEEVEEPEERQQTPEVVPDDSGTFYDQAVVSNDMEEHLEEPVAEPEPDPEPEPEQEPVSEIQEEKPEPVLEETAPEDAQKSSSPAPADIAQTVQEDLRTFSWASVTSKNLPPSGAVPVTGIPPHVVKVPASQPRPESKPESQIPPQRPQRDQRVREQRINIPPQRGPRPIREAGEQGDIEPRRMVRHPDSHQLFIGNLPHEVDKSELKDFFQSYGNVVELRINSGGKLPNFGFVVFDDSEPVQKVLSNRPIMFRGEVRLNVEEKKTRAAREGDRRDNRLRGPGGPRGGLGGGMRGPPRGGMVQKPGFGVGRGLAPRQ
Method: RNA Bind-n-Seq
Molecule type: RNA
Medium: in vitro
Concentration: 1 µM
Notes: whole 134-nt RNA, ends assumed
With: 150 mM KCl
Relative to: input library
Reading: higher = stronger binding
| Strand | log2 enrichment |
| --- | --- |
| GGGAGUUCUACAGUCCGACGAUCACCAUGCAGGUGGGCAUCUUUGGGAAGUGGGGCAUGGGGGGGAUAGGGAGGGGGGUAACACUUUGGGAACAGGUGGUCCCAGGUCGUUUCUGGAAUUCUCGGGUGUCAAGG | -0.366 |
| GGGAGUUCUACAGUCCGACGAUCCACAGACAACACGCACCCACACAGACACAGAGGGAAGGAAAUGGGAUGGGGACAGGGUGCACAGCAGGGCGGGGUAGGACCCCAGCCCCUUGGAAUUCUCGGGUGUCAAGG | 0.0667 |
| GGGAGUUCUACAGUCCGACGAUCAAGUCCUGUGCUACACAUCGUAUGUACCGAAUCGGUUUUUGGUUUUUGGUUUUUGGAAAGUAUUAUGUUACGCCGUUCGGAUCUGCACUUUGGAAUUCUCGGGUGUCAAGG | -0.136 |
| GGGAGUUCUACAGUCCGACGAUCCCUGUGCUACACAUCGUAUGUACCGAAUCGGGGUUUUUUGGUUUUUUGGGUUUUUUGGGGAAAGUAUUAUGUUACGCCGUUCGGAUCUGCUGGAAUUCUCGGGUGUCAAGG | -0.293 |
| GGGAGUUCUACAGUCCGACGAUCUCAAGUCCUGUGCUACACAUCGUAUGUACCGAAUCGGCCCGGGGCCCGGCCCGGGAAAGUAUUAUGUUACGCCGUUCGGAUCUGCACUUCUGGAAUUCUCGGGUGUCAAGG | -0.528 |
| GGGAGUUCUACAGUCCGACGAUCCUUUGUAAUGGGAACUGCCUCUUUCCUGUUGUUGUUAAUGAAAAUGUCAGAAACCAGUUAUGUGAAUGAUCUCUCUGAAUCCUAAGGGCUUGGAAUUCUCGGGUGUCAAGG | -0.0733 |
| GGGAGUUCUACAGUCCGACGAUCCAAGUCCUGUGCUACACAUCGUAUGUACCGAAUCGGUUUUUUUGGUUUGGAAAGGAAAGUAUUAUGUUACGCCGUUCGGAUCUGCACUUCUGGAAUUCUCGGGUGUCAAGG | -0.368 |
| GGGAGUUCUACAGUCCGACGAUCUGGCAGGUGGAUUUUGUUUAUUUUUUUAGCUCAUUUCCAGGGGUGGGAAUUUUUUUUUAAUAUGUGUCAUGAAUAAAGUUGUUUUUGAAAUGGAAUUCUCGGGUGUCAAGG | 1.91 |
| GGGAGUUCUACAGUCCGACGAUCUGGGAGGUGGAUUUUGUGUAUUUUUUUAGCUCAUUUCCAGGGGUGGGAAUUUUUUUUUAAUAUGUGUCAUGAAUAAAGUUGUUUUUGAAAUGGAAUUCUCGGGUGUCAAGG | 1.97 |
| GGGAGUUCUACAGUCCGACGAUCUGGGAGGUGGAUUUUGUUUAUUUUUUUAGCUCAUUUCCAGGGGUGGGAAUUUUUUUUUAAUAUGUGUCCUGAAUAAAGUUGUUUUUGAAAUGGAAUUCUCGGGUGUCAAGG | 1.88 |

Series 2
Target: Sal-like protein 4, full length isoform A (SALL4, Homo sapiens, UniProt Q9UJQ4, residues 1-1053)
UniProt Q9UJQ4, sequence (whole entry, looked up): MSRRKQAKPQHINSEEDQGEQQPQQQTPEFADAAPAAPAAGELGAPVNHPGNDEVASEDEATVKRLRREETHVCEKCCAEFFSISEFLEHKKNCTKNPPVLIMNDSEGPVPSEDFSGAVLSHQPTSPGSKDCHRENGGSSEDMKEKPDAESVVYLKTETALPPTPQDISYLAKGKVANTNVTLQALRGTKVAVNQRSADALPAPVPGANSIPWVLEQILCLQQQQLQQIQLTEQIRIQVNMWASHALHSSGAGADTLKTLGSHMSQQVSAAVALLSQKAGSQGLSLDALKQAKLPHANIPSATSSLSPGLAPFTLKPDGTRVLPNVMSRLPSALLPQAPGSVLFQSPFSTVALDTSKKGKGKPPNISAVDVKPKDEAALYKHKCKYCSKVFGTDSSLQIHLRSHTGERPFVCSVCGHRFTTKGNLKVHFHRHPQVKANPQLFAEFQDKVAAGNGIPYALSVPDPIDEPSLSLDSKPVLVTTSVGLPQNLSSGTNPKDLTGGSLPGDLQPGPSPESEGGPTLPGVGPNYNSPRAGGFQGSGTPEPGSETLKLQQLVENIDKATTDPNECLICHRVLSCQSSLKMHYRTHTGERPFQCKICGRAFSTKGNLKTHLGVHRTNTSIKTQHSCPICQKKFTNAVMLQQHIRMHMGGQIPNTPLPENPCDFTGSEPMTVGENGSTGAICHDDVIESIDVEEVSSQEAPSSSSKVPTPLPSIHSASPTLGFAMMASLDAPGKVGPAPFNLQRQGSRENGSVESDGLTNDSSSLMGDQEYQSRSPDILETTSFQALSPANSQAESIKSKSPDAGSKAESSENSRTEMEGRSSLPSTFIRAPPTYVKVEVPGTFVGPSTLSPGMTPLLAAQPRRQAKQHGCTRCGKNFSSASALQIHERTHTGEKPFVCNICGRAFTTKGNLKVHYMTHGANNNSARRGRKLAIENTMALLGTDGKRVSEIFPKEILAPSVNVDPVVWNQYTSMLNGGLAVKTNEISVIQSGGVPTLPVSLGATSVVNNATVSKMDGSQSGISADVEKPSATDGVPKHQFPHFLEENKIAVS
Method: universal PBM
Molecule type: double-stranded DNA, one strand shown
Medium: in vitro
Concentration: 600 nM
Notes: 8-mer, flanks averaged, mean of replicates
Reading: higher = stronger binding
| Strand | E-score |
| --- | --- |
| ATGCATCG | 0.0304 |
| CTTATCCC | 0.0152 |
| GTTCAGTA | 0.126 |
| GGTGATAC | -0.16 |
| ATGCGCTG | -0.189 |
| CTGTCAAG | -0.0668 |
| GAGCAAAA | 0.0055 |
| TATTAGGA | 0.318 |
| GCCTTCAA | -0.00247 |
| TAATACCA | 0.213 |
| ATATGAAA | 0.417 |
| ATCCTAAA | 0.0224 |
| AACCACAC | 0.0316 |
| GCCCCACC | -0.24 |
| GTCGAGTA | 0.0529 |
| AGGCTTGA | -0.0651 |
| CGAACCAG | -0.136 |
| ACCGAAGT | -0.0995 |
| AGTCTCGA | -0.0272 |

Series 3
Target: ABI1, truncated, D143A, DHFR fusion (Arabidopsis thaliana)
Method: DHFR PCA, deep sequencing
Medium: yeast
Notes: methotrexate growth selection, single substitutions
With: (+)-ABA 0.11 µM
Relative to: wild-type fitted maximum
Reading: higher = stronger binding
Starting sequence: PYL1, truncated, DHFR fusion (Arabidopsis thaliana); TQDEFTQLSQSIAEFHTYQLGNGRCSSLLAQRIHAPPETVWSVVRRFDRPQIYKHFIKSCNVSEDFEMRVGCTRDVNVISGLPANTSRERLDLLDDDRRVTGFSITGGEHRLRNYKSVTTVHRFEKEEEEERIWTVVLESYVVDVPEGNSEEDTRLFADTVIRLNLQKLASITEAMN; partner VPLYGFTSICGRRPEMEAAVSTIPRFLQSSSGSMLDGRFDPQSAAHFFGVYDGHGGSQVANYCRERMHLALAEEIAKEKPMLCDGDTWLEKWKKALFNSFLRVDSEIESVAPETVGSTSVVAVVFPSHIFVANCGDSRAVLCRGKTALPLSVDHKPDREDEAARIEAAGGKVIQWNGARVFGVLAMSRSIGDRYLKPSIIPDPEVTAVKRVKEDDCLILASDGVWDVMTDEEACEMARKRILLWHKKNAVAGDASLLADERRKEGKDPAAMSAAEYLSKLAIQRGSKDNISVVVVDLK
| Change | relative binding score [%] |
| --- | --- |
| A35Q | 0.125 |
| T101N | -3.44 |
| S26W | 0.91 |
| Q19C | 15.9 |
| F15Y | 32 |
| T106Y | 8.48 |
| S59Y | 20.8 |
| R111E | 1.07 |
| M68L | 61.8 |
| T1F | 27.2 |
| T6R | 49.9 |
| K54L | -3.6 |
| Q167M | 20.3 |
| G21P | 13.9 |
| I105G | -9 |
| D75A | 12.9 |
| D153V | -1.26 |
| S140C | 0.984 |
| L29R | -2.28 |
| R49P | -4.04 |
| S63I | 9.26 |
| W41D | -4.45 |
| L82T | 6.94 |
| R46Q | 41.6 |
| V70I | 26.8 |

Series 4
Target: RNA binding protein fox-1 homolog 2, RRM domain, GST-SBP tag (RBFOX2, Homo sapiens, UniProt O43251-10, residues 100-194)
Method: RNA Bind-n-Seq
Molecule type: RNA
Medium: in vitro
Concentration: 365 nM
Notes: natural RNA segment, single round, ends assumed
Relative to: no-protein control
Reading: higher = stronger binding
Target sequence (chain): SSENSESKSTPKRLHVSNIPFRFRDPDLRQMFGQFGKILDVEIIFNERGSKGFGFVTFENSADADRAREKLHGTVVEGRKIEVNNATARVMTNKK
| Strand | RBNS enrichment (R) |
| --- | --- |
| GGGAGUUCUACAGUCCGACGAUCUCAGGAUACCUGCUGUCCACCCAACAGACUGCAAACAUCAACUGUGUUUGGUGCUGACACUCUGAACCCAAAACCAGGGAUCUCUGACAGGCUUGCCUGGCCCCAGGGACUGGAAUUCUCGGGUGCCAA | 0.276 |
| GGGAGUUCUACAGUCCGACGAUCGGAAAAGAAGUUUUCUUACAAACCAAAGGGCUUUAGGGAGGACGUUAGGGUUAUAGCUGUGGACUGAAGAGUUGCCUUCCAAAGGAAAGAGGACCAAAUUGCUUACAUGAUGGAAUUCUCGGGUGCCAA | 0.745 |
| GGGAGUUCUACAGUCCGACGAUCUCCUUUCUUUCUUCCCUCUGUUAUUCAUUCAUCAAGCAGGUUAAAGCCAUUGUGCUAAGAUCUAAUCUGAGGACACUAUAAUGGCCCUGUCGUCAGGGAAGCCCGUGAUCUGGAAUUCUCGGGUGCCAA | 0.435 |
| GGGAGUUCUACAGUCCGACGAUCAGUGGCAAAAAUCCCCUUUUUGUAAGCCCCCAUAGUCUAGAGGCAGUUUUCUUUUUAAGAAUCAUGCCAGAGCCUGAGUCGAGCAGUAUGCUUUCUUGGUUUUUGAGAGUUGGAAUUCUCGGGUGCCAA | 0.335 |
| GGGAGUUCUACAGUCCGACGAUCGAGAAAGGUACACAGUUGCCCGGUUGGGAAUGUGCUUGGCGCUGACCCUGCGGGCAUCUGACUGGUCUUCCAGCUCAGGAAAAAGAAUUUGAAAGAGGCUUAGCGUGAAGUGGAAUUCUCGGGUGCCAA | 0.353 |
| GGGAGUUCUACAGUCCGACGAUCCUCCCUGAAAUGUGGCAUCAGCAUGAAAACAAGCAGCCUGUCUUUCCUCAUUAACUGGGAGUCCCACUUACCUACUGUCAGCUGAUCACAGCAGCAAUGGCUAAUUCAGUUGGAAUUCUCGGGUGCCAA | 2.54 |
| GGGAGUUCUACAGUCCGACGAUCCCGCCUUCGAGCCUGCAGGAACUAGAACAAGACUAUGGGGAAUCCUUUCUAGUUGCCAUGGAAAAGCUGUUGUUUGAAUACUUGUGUCAGCUAGAGAAAGCACUGCCUCCUGGAAUUCUCGGGUGCCAA | 1.44 |
| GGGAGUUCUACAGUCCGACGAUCACUAUAUUUGAUGGGGCCAAGAGGGUCCAAACCCUGCUAACAUACCACUUUAUUCAACUCCUUUACUUUCCUAGCCGGUUGAGGAGGGACCAUGAGAACAGAAAUUACCUUGGAAUUCUCGGGUGCCAA | 0.417 |
| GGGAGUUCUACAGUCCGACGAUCAAAUGACAUUGUGAACACAGUAUUAUUGUGGGAAGAGGGCAUUUGGAUUUCUCAAUGUUUGUGAUAUUUUUGUUCCCAAGGCAUCUUAGGAGUACUUGGAUCAUAGCUUUUGGAAUUCUCGGGUGCCAA | 0.345 |
| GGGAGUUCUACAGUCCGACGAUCUUCCUCCGACCUGUGUAGGGUGUGGACCCAGUAAGGGCUGGGAAUUUCUUACUUUCCCACCCGCUUUCUCUCUGGUCUUCUCCCAGGCUGGAUCUGGGCGAAGUGUCACUUGGAAUUCUCGGGUGCCAA | 0.203 |
| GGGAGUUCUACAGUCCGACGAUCGGGCCGAGAGAACAUCAGAGGCAGGUAGGUUGCUUGUGGACAGCCUUAGACACCAAAUCCUUGCCUCUGGAGUGUAGCCACACACAACACAGAGAGUAACUGAAGCCUAUUGGAAUUCUCGGGUGCCAA | 0.461 |
| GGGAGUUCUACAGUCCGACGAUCAUAGAGCGUUUCCCCUCUUGCUAACUCCCCAUUUUCUCCGUGAGCUCUGACUCCUAUUUAUCAUAUACUCACUCUGACUCUGAGGAAGGCAGAGAGGUGCCACUUGGCCUUGGAAUUCUCGGGUGCCAA | 0.243 |

Repeated from above (series 3):
| Change | relative binding score [%] |
| --- | --- |
| F15Y | 32 |
| S59Y | 20.8 |
| G21P | 13.9 |
| R49P | -4.04 |
